# Assay results pooled from the literature.
# Each line is one published result; not all experiments were run side by side. Several values in a cell are separate wells, animals, samples, runs or records. ± gives the spread as reported.
# CDK2: Cyclin-dependent kinase 2 (CDK2, Homo sapiens, UniProt P24941)
SMILES,target or system,assay,conditions,scale,endpoint,result
C[C@@H](O)[C@H](NC(=O)Nc1ncnc2c1ncn2[C@@H]1O[C@H](CO)[C@@H](O)[C@H]1O)C(=O)O,mock-transfected cells,"TGFα shedding, agonist",1 nM,relative to: unstimulated vehicle control,AP-TGFα release,0%
Cc1nn(-c2nc3c(F)cc(F)cc3s2)c(O)c1C(c1ccccc1C(F)(F)F)c1c(C)nn(-c2nc3c(F)cc(F)cc3s2)c1O,THP1-Dual,IFN luciferase reporter,"10 µM, with: HT-DNA",,inhibition,-10.3% and 11.6% and 12.7% and 10.5% and 10.3%
Cc1ccc(CNC(=O)Cn2cc(CSc3nc4ccccc4[nH]3)nn2)cc1,HEK293,MTT,62.5 ppm,,cytotoxicity,86.2%
COc1ccc(-n2nc(C(C)=O)s/c2=N\N=C(/C)c2ccc(NC(=O)c3ccc(C)cc3)cc2)cc1,MCF7,,5 µM,,toxicity,96.9%
CC(C)=CCNc1ncnc2c1ncn2[C@@H]1O[C@H](CO)[C@@H](O)[C@H]1O,mock-transfected cells,"TGFα shedding, agonist",1 µM,relative to: unstimulated vehicle control,AP-TGFα release,2.29% and 1.76% and 0.06%
O=C(NN=Cc1ccc([N+](=O)[O-])s1)C1CC(=O)N(c2ccc(F)cc2F)C1 (centres unmarked),PPC-1,wound healing,"10 µM, 12 h",,cell migration,inhibited
C=CC(=O)N1CCC[C@@H](c2ccc(C(N)=O)c3[nH]ccc23)C1,TMD8 RAC2 knock-out,"calcium flux, FLIPR",,,IC50,< 0.1 µM
CC(=O)Nc1cc(Oc2ccc3c(nc(Nc4ccc(F)cc4F)n3C)c2C)ccn1,MHHCALL4 B-ALL cells,CellTiter-Glo,"concentration not given, 3 d",,cell proliferation,inhibited
NS(=O)(=O)OC[C@@H]1C[C@@H](n2ccc3c(N[C@H]4CCc5ccccc54)ncnc32)C[C@@H]1O,BRD4-HiBiT cells,"BRD4 degradation rescue, inhibitor","8 h, 50% degradation rescued, with: dBET6 500 nM",,EC50,0.0908 µM
Cc1cc(Nc2ncc(Cl)c(Nc3ccccc3S(=O)(=O)C(C)C)n2)c(OC(C)C)cc1C1CCNCC1,CLB-GE,"phosphoproteomics LC-MS/MS, measured: FAM59B phosphorylation","200 nM, 60 min",relative to: untreated,log2 fold change,-1.61
Clc1nc(NCc2ccco2)c2[nH]cnc2n1,iPSC-derived cardiomyocytes,"RNA-seq, measured: ADGRB2 chr1 exon ending 31728081",unit not given,relative to: DMSO minus compound,ΔPSI,-0.28
C=CCn1c(=O)c2cnc(Nc3ccc(N4CCN(C)CC4)cc3)nc2n1-c1ccc2c(n1)[C@@](O)(CC)CC2,NCI-H1048,"flow cytometry, measured: pHH3-γH2Ax+",concentration not given,,G2/M cells in subpopulation,10.9%
NS(=O)(=O)OC[C@H]1C[C@@H](Nc2ccnc3cc(-c4cccc(SC(F)(F)F)c4)nn23)[C@H](O)[C@@H]1O,BRD4-HiBiT cells,"BRD4 degradation rescue, inhibitor","8 h, with: dBET6 500 nM",,EC50,0.285 µM
CC(C)c1c(C(=O)Nc2ccccc2)c(-c2ccccc2)c(-c2ccc(F)cc2)n1CC[C@@H](O)C[C@@H](O)CC(=O)O,MDA-MB-231 BAX/BAK siRNA knockdown,CellTiter-Glo,concentration not given,relative to: normalised luminescence,viability,37.9% and 44.1%
CCn1cc(-c2cc(Cn3ccoc3=N)cc3c2CCN([C@@H](C)c2cc(OC)ccn2)C3=O)c(C(F)(F)F)n1,YD-10B,"cell growth, inhibitor",120 h,,EC50,> 30 µM
Cc1nn(-c2nc3c(F)cc(F)cc3s2)c(O)c1C(c1cccc(C(F)(F)F)c1)c1c(C)nn(-c2nc3c(F)cc(F)cc3s2)c1O,THP1-Dual,IFN luciferase reporter,"10 µM, with: HT-DNA",,inhibition,14.4% and 18.3% and 18% and 0.436% and 15.8% and 1.01%
Cn1cc(-c2ccc(-c3cncc(Cl)c3N3CCC4(CCNC4=O)CC3)cc2)cn1,COLO 205,"gene expression, microarray, measured: TCAF2 mRNA","concentration not given, 6 h",relative to: untreated cells,log2 fold change,5.63
COC1=CC(=O)C=C(OC)C1=O,MDA-MB-231 BAX/BAK siRNA knockdown,"cell viability, CellTiter-Glo",,direction not given,Z score,-0.963
O=C(/C=C/C=C/C=C/C1CCCCC1)NC1=C[C@@](O)(/C=C/C=C/C=C/C(=O)NC2=C(O)CCC2=O)[C@@H]2O[C@@H]2C1=O,SK-N-SH,CellTiter-Glo,78 h,,GI50,4.7 µM
CN(C)CCOc1cc(NC(=O)c2cc(Cl)cc(C(=O)Nc3cc(OCCN(C)C)c4ccccc4n3)n2)nc2ccccc12,HT-1080,"cell viability, CellTiter-Glo",72 h,relative to: IC50 HT-1080 over WI-38,selectivity ratio,1.8
O=c1[nH]nc(OCCCc2ccc(Cl)cc2)c(NCc2cccnc2)c1Br,"HEK-293T ATF4-mAPPLE, HRI CRISPRi knockdown",flow cytometry,"10 µM, 16 h",,ATF4-mAPPLE reporter activation,inhibited
CCCCc1oc2ccc(NS(C)(=O)=O)cc2c1C(=O)c1ccc(OCCCN(CCCC)CCCC)cc1,human embryonic stem cell aggregates,"mRNA level, microarray, measured: MXRA8","0.5 µM, 120 h","relative to: untreated, down-regulated",fold change,5.2 fold
COc1cnc2cccc(N3CCc4c(cc(Cn5ccnc5C)cc4-c4cn(C)nc4C(F)(F)F)C3=O)c2c1,YD-10B,"cell growth, inhibitor",120 h,,EC50,> 30 µM
COc1cccc(OC)c1NS(=O)(=O)c1ccc(N/C=C2\C(=O)Nc3ccc4ncsc4c32)cc1,CDK2,"average of ITC, Octet and Thermofluor",untagged protein,,Kd,1.89 µM
COc1ccc(NC(=S)N/N=C/c2cccc3cc4ccccc4nc23)cc1,HeLa,annexin V/PI,"concentration not given, 48 h, dosed at IC25, with: N-acetylcysteine",,late apoptotic cells,7.7%
N#C/C(=C\c1c[nH]nc1-c1cc(Br)cc(Br)c1)C(=O)O,LX-2,"qPCR, measured: ACTA2","10 µM, hepatic stellate cell activation, with: TGFβ",relative to: untreated,mRNA level,decreased
CC(C)(c1ccc(O)cc1)c1ccc(O)cc1,HepG2 spheroids,planimetry,"10 µM, 0 to 96 h",relative to: mean area of 72 h spheroids,spheroid area increase,165%
CCc1ccc(NC(=O)Nc2c[nH]c3ccccc23)cc1,THP1-Dual,"TBK1 phosphorylation, inhibitor, Western blot densitometry","20 µM, with: HT-DNA",,phospho-TBK1/TBK1 ratio,0.374 and 0.504 and 0.517
CC/C(=N\NC(=O)NCc1cccc(O)c1)c1ccc(O)c(C)c1O,SK-OV-3,ATP,"1 µM, 4 days, 3D gellan gum culture",relative to: untreated,relative cell number,109%
C[C@@H]1CN(C(=O)c2ccc(NC(=O)c3cc(O[C@H](C)c4c(Cl)ccc(F)c4Cl)c(N)nn3)cc2)C[C@H](C)N1,Aska-SS (ALK exon 2-17 deletion),cell viability,,,Emax,80.8%
C[C@H](Nc1ccc2c(c1)OCCn1cc(N3C(=O)OC[C@H]3C(F)F)nc1-2)C(N)=O,MKN-1,CellTiter-Glo,120 h,,Hill coefficient GR curve,0.406
CC(C)C[C@@H](C=O)NC(=O)[C@H](CC(C)C)NC(=O)[C@H](CC(C)C)NC(=O)OCc1ccccc1,BRD4-HiBiT cells,"BRD4 degradation rescue, inhibitor","2 h, with: dBET6 500 nM",,EC50,0.308 µM
CO[C@@H](C)Cn1c(=O)n(C)c2cnc3ccc(-c4cncc(C(C)(C)O)c4)cc3c21,HEK293T (G4C2)66-No-ATG-GFP reporter,"RAN translation of r(G4C2)exp, fluorescence reporter",concentration not given,,inhibition,44%
NCCCOc1cc(NC(=O)c2cccc(C(=O)Nc3cc(OCCCN)c4ccccc4n3)n2)nc2ccccc12,HT-1080,"cell viability, CellTiter-Glo",72 h,relative to: IC50 HT-1080 over WI-38,selectivity ratio,1.5
Cc1cccc(-c2[nH]c(CNc3ccccc3F)nc2-c2ccc3ncnn3c2)n1,MM1.S pomalidomide-resistant,XTT,2.25 µM,relative to: untreated,viability,44%
CCn1cc(-c2cc(Cn3ccnc3)cc3c2CCN([C@H](c2cc(OC)ccn2)C2CC2)C3=O)c(C(F)(F)F)n1,RL95-2,"cell growth, inhibitor",120 h,,EC50,> 30 µM
O=C1NCN(c2ccccc2)C12CCN(CCCC(c1ccc(F)cc1)c1ccc(F)cc1)CC2,MDA-MB-231 BAX/BAK siRNA knockdown,CellTiter-Glo,concentration not given,relative to: normalised luminescence,viability,27.4% and 15.6%
CC(C)NCC(O)c1ccc(O)c(O)c1 (centres unmarked),mouse ventricular cardiomyocytes,,"dose not given, 0.323 s",,sarcomere length,1.8 µm
C=CC1=C(C)c2cc3[n-]c(cc4nc(cc5[n-]c(cc1n2)c(C)c5C=C)C(C)=C4CCC(=O)O)c(CCC(=O)O)c3C.[Zn+2],SH-SY5Y,"RNA-seq, measured: PHLDA1 mRNA","5 µM, 5 h",relative to: untreated cells,fold change,1.72
CC(=O)Nc1cccc(-n2c(=O)n(C3CC3)c(=O)c3c(Nc4ccc(I)cc4F)n(C)c(=O)c(C)c32)c1,LoVo (KRAS G13D),"cell viability, resazurin","100.00 nM, 72 h",relative to: DMSO,average fractional effect,71%
Cn1cc(Nc2nccc(-c3ccc4c(c3)CN(C3COC3)CC[C@H]4NC(=O)c3cn(C(C)(C)C)nn3)n2)cn1,mouse splenic B cells,measured: Relaxin signalling,"30 mg/kg, IgD-activated in vivo","relative to: vehicle, direction not given",pathway activation z-score,3.21
CCOC(=O)C1=C(C)NC2=C(C(=O)OC(c3ccc(OC)c(OC)c3)C2)C1c1cccc2ccccc12 (centres unmarked),J774.A1,cytotoxicity,,,EC50,> 20 µM
C[C@H]1CN(C2COC2)CCN1c1ccc(Nc2cc(-c3ccnc(N4CCn5c(cc6c5CC(C)(C)C6)C4=O)c3CO)cn(C)c2=O)nc1,TMD8,"calcium flux, FLIPR","2 h preincubation, with: anti-IgM",,maximum inhibition,65.5%
CCCC1=C(C(=O)OCC)C(c2ccc(Cl)cc2C)C2=C(CC(c3ccc(Cl)c(OC)c3)CC2=O)N1 (centres unmarked),J774.A1,cytotoxicity,,,EC50,> 20 µM
O=P(O)(O)C(O)(Cn1ccnc1)P(=O)(O)O,hFOB 1.19,AlamarBlue,"3.8 µM, 24 h",relative to: control,viability,101 ± 1%
O=C(Nc1nnc2n3c(=S)[nH][nH]c3nc(-c3ccc(Cl)cc3)c1-2)c1ccccc1,MDA-MB-435,SRB,"10 µM, NCI60 single-dose screen",relative to: untreated,cell growth,103%
CCOC(=O)C1=C(C)NC2=C(C(=O)OC(c3ccc(OC)c(OC)c3)C2)C1c1ccc(Cl)cc1 (mixture of isomers),J774.A1,cytotoxicity,,,EC50,> 20 µM
O=C(Cn1nc(-c2cccc([N+](=O)[O-])c2)c2ccccc2c1=O)NCC1CCCO1 (centres unmarked),CDK2,binding,,,Kd,> 100 µM
CCOC(=O)C1=C(C)NC2=C(C(=O)OC(c3ccc(OC)c(OC)c3)C2)C1c1cccc(C)c1 (centres unmarked),J774.A1,cytotoxicity,,,EC50,> 20 µM
Cc1cnc(NC2CCOCC2)nc1-n1cnc(C(=O)NC(CN)c2cc(F)cc(Cl)c2)c1 (centres unmarked),MINO,flow cytometry,"1 µM, 24 h",,sub-G0 cells,16.7%

# Some of these lines once more:
SMILES,target or system,assay,conditions,scale,endpoint,result
CC(C)(c1ccc(O)cc1)c1ccc(O)cc1,HepG2 spheroids,planimetry,"10 µM, 0 to 96 h",relative to: mean area of 72 h spheroids,spheroid area increase,165%
CCc1ccc(NC(=O)Nc2c[nH]c3ccccc23)cc1,THP1-Dual,"TBK1 phosphorylation, inhibitor, Western blot densitometry","20 µM, with: HT-DNA",,phospho-TBK1/TBK1 ratio,0.374 and 0.504 and 0.517
CC/C(=N\NC(=O)NCc1cccc(O)c1)c1ccc(O)c(C)c1O,SK-OV-3,ATP,"1 µM, 4 days, 3D gellan gum culture",relative to: untreated,relative cell number,109%
C[C@@H]1CN(C(=O)c2ccc(NC(=O)c3cc(O[C@H](C)c4c(Cl)ccc(F)c4Cl)c(N)nn3)cc2)C[C@H](C)N1,Aska-SS (ALK exon 2-17 deletion),cell viability,,,Emax,80.8%
